Measured values collected from several papers.
Lines come from different studies, so protocols differ. Numbers after ± are the reported error. Square brackets hold non-standard residues; d marks the D form. Where no end group is shown, it is not given here. Ends that are not written are not given here. No end group written: not given here. The star is where a group is joined. * marks the point of attachment.
Form: peptide
DAXX: DAXX 55-144 (Homo sapiens, UniProt Q9UER7)
Chain of UniProt Q9UER7 (whole entry, looked up): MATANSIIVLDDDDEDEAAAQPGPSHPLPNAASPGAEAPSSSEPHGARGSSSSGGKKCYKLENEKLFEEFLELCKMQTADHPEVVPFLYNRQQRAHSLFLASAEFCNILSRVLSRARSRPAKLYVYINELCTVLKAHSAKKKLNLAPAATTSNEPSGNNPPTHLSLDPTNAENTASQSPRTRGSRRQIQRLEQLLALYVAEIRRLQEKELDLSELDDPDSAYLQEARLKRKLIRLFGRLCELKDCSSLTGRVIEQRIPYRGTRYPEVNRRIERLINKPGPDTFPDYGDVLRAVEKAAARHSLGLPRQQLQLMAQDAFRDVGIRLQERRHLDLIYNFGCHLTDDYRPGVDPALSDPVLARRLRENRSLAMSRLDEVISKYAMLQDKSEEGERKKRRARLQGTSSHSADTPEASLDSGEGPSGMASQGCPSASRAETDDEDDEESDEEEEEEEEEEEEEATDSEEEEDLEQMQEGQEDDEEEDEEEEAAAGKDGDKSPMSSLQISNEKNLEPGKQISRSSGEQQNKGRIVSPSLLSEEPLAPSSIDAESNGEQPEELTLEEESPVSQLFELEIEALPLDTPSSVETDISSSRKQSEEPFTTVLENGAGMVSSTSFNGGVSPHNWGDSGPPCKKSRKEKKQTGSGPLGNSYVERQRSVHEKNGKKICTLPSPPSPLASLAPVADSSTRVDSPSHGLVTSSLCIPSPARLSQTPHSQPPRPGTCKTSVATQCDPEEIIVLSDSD
Chain of UniProt P62258 (whole entry, looked up): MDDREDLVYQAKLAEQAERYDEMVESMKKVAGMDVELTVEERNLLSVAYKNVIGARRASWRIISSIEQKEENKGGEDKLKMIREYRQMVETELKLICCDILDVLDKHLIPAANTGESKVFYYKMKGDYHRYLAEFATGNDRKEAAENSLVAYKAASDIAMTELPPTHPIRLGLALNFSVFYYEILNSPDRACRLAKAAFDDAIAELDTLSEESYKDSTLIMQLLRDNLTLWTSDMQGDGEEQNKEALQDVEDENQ
Chain of UniProt P0ADV1 (whole entry, looked up): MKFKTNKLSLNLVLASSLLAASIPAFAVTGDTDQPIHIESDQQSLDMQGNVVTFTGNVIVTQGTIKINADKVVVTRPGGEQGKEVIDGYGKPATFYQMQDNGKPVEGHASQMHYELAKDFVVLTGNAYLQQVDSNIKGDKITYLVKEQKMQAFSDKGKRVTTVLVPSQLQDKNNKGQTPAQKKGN
Chain of UniProt P29590 (whole entry, unmodified, looked up): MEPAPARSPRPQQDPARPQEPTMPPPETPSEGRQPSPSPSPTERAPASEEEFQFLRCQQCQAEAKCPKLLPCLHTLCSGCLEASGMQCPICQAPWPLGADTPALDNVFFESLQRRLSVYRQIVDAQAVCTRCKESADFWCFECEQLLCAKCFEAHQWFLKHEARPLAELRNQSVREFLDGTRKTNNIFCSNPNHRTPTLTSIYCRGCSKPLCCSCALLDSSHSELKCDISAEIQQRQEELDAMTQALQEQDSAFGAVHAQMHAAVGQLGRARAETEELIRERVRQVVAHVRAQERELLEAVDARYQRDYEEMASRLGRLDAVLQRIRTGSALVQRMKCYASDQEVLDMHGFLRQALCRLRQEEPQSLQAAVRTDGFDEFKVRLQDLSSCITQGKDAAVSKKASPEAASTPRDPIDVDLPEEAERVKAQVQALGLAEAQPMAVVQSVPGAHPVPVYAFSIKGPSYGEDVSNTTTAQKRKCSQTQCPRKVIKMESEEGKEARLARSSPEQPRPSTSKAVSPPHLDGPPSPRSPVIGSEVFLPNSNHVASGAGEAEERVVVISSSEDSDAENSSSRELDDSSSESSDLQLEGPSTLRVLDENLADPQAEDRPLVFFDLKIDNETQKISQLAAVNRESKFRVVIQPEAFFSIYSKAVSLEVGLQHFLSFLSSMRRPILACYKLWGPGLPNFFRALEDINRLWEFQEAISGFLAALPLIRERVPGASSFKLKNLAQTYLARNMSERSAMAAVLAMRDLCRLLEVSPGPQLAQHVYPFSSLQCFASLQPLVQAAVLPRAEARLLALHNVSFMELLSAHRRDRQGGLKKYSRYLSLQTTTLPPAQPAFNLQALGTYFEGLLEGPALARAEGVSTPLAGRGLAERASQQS
Chain of UniProt P45481 (whole entry, looked up): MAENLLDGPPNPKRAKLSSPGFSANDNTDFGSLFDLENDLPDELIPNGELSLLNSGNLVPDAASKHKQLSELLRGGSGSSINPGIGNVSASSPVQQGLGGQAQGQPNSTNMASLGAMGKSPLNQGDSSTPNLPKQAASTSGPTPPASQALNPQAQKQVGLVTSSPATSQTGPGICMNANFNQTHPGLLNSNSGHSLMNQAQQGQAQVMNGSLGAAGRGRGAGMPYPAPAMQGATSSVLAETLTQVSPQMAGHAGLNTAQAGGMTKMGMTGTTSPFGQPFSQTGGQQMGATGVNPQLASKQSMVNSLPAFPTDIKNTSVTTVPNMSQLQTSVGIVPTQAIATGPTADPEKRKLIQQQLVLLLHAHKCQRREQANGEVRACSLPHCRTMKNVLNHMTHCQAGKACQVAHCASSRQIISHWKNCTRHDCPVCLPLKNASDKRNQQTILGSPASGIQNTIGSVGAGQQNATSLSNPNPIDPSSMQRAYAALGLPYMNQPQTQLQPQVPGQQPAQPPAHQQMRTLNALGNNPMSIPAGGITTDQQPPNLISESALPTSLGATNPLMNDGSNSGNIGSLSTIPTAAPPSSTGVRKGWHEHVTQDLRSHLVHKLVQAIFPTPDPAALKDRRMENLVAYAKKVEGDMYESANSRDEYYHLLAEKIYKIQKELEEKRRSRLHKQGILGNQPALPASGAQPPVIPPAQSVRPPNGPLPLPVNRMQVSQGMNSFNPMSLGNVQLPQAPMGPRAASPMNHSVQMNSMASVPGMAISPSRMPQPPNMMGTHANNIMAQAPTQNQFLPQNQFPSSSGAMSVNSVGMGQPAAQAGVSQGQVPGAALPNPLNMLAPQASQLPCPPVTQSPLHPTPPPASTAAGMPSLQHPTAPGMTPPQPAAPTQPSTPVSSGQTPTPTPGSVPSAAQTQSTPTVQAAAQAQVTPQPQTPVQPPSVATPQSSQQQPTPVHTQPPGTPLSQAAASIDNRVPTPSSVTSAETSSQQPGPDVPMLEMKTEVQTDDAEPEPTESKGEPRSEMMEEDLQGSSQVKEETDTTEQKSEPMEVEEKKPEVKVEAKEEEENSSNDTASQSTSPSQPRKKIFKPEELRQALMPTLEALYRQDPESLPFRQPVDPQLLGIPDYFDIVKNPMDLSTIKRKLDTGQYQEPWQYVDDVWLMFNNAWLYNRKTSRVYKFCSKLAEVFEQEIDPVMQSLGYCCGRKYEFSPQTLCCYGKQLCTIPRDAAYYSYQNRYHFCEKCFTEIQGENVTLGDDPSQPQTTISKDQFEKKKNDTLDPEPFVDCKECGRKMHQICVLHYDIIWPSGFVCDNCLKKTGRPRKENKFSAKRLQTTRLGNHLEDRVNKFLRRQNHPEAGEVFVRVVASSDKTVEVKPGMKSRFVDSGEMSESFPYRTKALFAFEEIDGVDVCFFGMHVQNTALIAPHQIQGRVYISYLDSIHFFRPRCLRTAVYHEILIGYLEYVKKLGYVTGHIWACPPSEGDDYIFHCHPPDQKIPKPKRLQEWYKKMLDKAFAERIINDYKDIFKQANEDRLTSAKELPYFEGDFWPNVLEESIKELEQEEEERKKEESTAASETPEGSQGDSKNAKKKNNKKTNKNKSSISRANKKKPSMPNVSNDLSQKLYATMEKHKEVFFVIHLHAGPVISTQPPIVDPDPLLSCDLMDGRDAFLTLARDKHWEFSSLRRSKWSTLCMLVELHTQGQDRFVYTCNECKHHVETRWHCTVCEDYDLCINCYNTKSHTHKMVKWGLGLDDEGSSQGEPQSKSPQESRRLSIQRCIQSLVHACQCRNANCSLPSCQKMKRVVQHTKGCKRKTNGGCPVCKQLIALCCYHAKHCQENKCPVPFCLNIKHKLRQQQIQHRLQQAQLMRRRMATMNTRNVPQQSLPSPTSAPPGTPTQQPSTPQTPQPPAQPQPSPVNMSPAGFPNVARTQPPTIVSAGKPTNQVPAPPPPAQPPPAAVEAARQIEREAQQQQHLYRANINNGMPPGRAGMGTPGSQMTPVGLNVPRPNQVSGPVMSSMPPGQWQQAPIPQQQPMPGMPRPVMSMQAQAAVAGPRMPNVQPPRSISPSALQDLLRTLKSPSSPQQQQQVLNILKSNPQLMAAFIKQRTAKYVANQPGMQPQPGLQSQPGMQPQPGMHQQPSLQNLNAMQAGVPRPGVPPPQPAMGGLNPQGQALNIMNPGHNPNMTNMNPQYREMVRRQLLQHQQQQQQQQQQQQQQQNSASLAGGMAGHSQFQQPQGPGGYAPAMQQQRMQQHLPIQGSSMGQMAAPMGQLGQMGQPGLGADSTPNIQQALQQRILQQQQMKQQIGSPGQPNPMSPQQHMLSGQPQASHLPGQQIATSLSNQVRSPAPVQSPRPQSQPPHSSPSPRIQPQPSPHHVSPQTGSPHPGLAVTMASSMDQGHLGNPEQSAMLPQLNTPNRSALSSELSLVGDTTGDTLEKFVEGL
Chain of UniProt Q8C669 (whole entry, looked up): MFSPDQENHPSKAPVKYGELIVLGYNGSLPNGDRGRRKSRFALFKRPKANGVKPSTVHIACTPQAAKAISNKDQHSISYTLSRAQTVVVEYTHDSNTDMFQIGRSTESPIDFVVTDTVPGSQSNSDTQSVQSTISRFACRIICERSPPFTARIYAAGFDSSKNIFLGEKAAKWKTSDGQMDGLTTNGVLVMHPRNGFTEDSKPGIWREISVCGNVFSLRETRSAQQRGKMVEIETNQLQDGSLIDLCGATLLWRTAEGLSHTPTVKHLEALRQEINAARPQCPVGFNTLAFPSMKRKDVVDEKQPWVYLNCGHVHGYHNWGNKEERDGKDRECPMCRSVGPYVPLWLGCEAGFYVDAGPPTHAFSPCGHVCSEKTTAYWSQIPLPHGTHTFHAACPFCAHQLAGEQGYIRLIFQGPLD

Sequence | partner | test | setting | Kd
{FITC}-FDDDDYDTDF (BLM 291-300 (Homo sapiens, UniProt P54132); N-terminal FITC; FITC = O=C1OC2(c3ccc(O)cc3Oc3cc(O)ccc32)c2ccc(NC(=S)*)cc21; sequence looked up) | MCM6 708-821 C721S (Homo sapiens, UniProt Q14566) | fluorescence polarisation | pH 6.5, NaCl 50 mM | 97.3 ± 3.8 µM
H-SDQEAK (SUMO1 residues 1-6 (Homo sapiens)) | HERC2 ZZ domain 2702-2755 (Homo sapiens, UniProt O95714) | tryptophan fluorescence titration | pH 6.8, NaCl 150 mM | 8 µM
PVTVDDDDDDNDPENRIAKKMLLEEIKANL (ATRX 1255-1284 (Homo sapiens, UniProt P46100); sequence looked up) | DAXX | ITC | pH 7.5, 25 °C | 0.39 µM
GSKKPVPIIYANRRTGKAQRM (Podisus maculiventris peptide mature C11A/C18A (Podisus maculiventris, UniProt P55788); sequence looked up) | lptA 28-158 (Escherichia coli, UniProt P0ADV1) | BLI | 25 °C, steady-state fit | 0.047 µM
GSHMSNVIDTDFIDEEVLMSLVIEMGLDRIKE (CITED2 residues 216-242 (Homo sapiens, UniProt Q99967)) | Crebbp 340-439 (Mus musculus, UniProt P45481) | competition with ligand, fluorescence polarisation | pH 6.8, 298 K, NaCl 50 mM, apparent | 1.1 µM
ARTKQTARKSTGY (histone H3 2-13 (UniProt P68431)) | PHF12 48-116 (Homo sapiens, UniProt Q96QT6) | NMR titration | pH 7.0, 25 °C, NaCl 50 mM | 208 ± 14 µM
{FITC}-SPGKLLVKMPF-NH2 (MECP2 peptide residues 216-226 (Homo sapiens); N-terminal FITC, C-terminal amide; FITC = O=C1OC2(c3ccc(O)cc3Oc3cc(O)ccc32)c2ccc(NC(=S)*)cc21) | DNMT3A 476-614 D529A/D530A/D531A (Homo sapiens, UniProt Q9Y6K1) | fluorescence polarisation | pH 7.5, 23 °C, KCl 100 mM, simple binding fit | 29.3 µM
GSFGPDLRAGD (peptide) | PPIB fragment (Homo sapiens) | NMR titration | apparent, cis and trans isomers | 171 ± 5 µM
{FITC}-GFID[pS]D[pT]DVEEE-NH2 (peptide; N-terminal FITC, pS5, pT7, C-terminal amide; FITC = O=C1OC2(c3ccc(O)cc3Oc3cc(O)ccc32)c2ccc(NC(=S)*)cc21; pS = N[C@@H](COP(=O)(O)O)C(=O)O; pT = C[C@@H](OP(=O)(O)O)[C@H](N)C(=O)O) | TOPBP1 641-746 A707K (Homo sapiens, UniProt Q92547) | fluorescence polarisation | pH 7.5, NaCl 150 mM | 12 ± 0.9 µM
RRRRRRRC / CKNYKKTEV (CRIPT C-terminal PBM; cyclic; disulfide to poly-arginine) | DLG4 309-422 (Homo sapiens, UniProt P78352) | SPR | pH 7.5, NaCl 100 mM | 0.191 µM
PVTVDDDDDDNDPENRIAKKMLLEEIKANLSSDED (ATRX 1255-1289 (Homo sapiens, UniProt P46100); sequence looked up) | DAXX | ITC | pH 7.5, 25 °C | 0.16 µM
EPGP[pY]AQPSVNTP (Crk residues 217-229; pY221; pY = N[C@@H](Cc1ccc(OP(=O)(O)O)cc1)C(=O)O) | Abl1 120-220 (Mus musculus, UniProt P00520) | NMR titration | 25 °C | 69 µM
fluorescein-YSSAS[pT]FLSP-NH2 (IRAK1 residues 137-145 (Homo sapiens, UniProt P51617); also: fluorescein: FITC or 5,6-FAM; pT141, C-terminal amide, N-terminal fluorescein; pT = C[C@@H](OP(=O)(O)O)[C@H](N)C(=O)O) | Peli1 2-287 (Mus musculus, UniProt Q8C669) | fluorescence polarisation | 25 °C | 1.7 µM
RRRAV[pS]MDNSN (FOXO3 248-258 (human); pS253; pS = N[C@@H](COP(=O)(O)O)C(=O)O) | YWHAE (Homo sapiens, UniProt P62258) | ITC | pH 7.5 | 6.7 ± 1.8 µM
PENRIAKKMLLEEIKANLSSDEDG (ATRX 1267-1290 (Homo sapiens, UniProt P46100); sequence looked up) | DAXX | ITC | pH 7.5, 25 °C | 31 µM
SGAGEAEERVVVIDDDEDDDAENSSSRY (PML 547-573 S560D/S561D/S562D/S565D (Homo sapiens, UniProt P29590)) | SUMO2 2-93 C48A (Homo sapiens, UniProt P61956) | ITC | pH 7.4, 25 °C, NaCl 50 mM, without zinc or calcium | 12 ± 1 µM
PENRIAKKMLLEEIKANL (ATRX 1267-1284 (Homo sapiens, UniProt P46100); sequence looked up) | DAXX | ITC | pH 7.5, 25 °C | 101 µM
MWPHRVTAAK (peptide; fluorescein) | MAP1LC3A (Homo sapiens, UniProt Q9H492) | fluorescence polarisation |  | 1.12 ± 0.356 µM

Some of these lines once more:
Sequence | partner | test | setting | Kd
PENRIAKKMLLEEIKANL (ATRX 1267-1284 (Homo sapiens, UniProt P46100); sequence looked up) | DAXX | ITC | pH 7.5, 25 °C | 101 µM
